Measurements from different studies.
Every numbered part comes from another study and shows a few of its results, in no order. Values joined by “and” are separate records of one study, mostly repeats; a detail may differ.

Set 1
Target: Ras GTPase-activating protein-binding protein 1, full length (G3BP1, Homo sapiens, UniProt Q13283)
Chain of UniProt Q13283 (whole entry, looked up): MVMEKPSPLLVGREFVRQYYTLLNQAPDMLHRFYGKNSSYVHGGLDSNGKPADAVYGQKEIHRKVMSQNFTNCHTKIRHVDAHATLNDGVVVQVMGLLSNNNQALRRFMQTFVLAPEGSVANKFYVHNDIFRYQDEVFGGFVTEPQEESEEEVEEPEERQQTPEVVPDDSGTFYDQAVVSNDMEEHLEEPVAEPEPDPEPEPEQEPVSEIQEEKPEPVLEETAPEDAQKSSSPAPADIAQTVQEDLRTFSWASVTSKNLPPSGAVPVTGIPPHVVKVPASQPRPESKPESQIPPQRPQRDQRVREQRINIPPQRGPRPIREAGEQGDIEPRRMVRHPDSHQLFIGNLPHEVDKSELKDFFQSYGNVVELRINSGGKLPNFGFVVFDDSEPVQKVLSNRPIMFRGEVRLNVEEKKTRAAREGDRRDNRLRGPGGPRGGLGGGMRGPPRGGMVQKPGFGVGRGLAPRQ
Technique: RNA Bind-n-Seq
Form: RNA
Sample: in vitro
Concentration: 200 nM
Setting: whole 134-nt RNA, ends assumed
Together with: 150 mM LiCl
Relative to: input library
Direction: higher = stronger binding
Library: 7-deaza-guanosine replaces G
| Sequence | log2 enrichment |
| --- | --- |
| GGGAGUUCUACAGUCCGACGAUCUCAAGUCCUGUGCUACACAUCGUAUGUACCGAAUCGGGGCCGGGCCGGGGCCGGAAAGUAUUAUGUUACGCCGUUCGGAUCUGCACUUCCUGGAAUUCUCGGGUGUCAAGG | 0.361 |
| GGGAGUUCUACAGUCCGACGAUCGCAGGAAGUAAAAACAAAUGGAAUUGCUUCGGAUAGUGGCAGGGGUGGGGGUUGCUAAGGAAAGGGUGGGAUGGGAGUGGGUAAAGAGUUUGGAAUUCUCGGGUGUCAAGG | 0.182 |
| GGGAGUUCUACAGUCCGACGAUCCAAGUCCUGUGCUACACAUCGUAUGUACCGAAUCGGUUUUUGGUUUGGAAAAAGGAAAGUAUUAUGUUACGCCGUUCGGAUCUGCACUUCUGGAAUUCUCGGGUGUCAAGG | -1.44 |
| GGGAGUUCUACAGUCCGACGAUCAGUCCUGUGCUACACAUCGUAUGUACCGAAUCGGGAGGGAAAAAAAGGGUUUUUGGGAAAGUAUUAUGUUACGCCGUUCGGAUCUGCACUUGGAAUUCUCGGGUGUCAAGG | -1.44 |
| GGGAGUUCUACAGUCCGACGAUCUCAAGUCCUGUGCUACACAUCGUAUGUACCGAAUCGGGGAAAGGGAAAGGAAAGGAAAGUAUUAUGUUACGCCGUUCGGAUCUGCACUUCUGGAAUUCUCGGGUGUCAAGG | -0.651 |
| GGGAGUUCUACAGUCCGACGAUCAAGUCCUGUGCUACACAUCGUAUGUACCGAAUCGGCCCCCGGCCCCCGGCCCCCGGGAAAGUAUUAUGUUACGCCGUUCGGAUCUGCACUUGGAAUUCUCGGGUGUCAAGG | -0.0488 |
| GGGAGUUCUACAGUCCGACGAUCCAAGUCCUGUGCUACACAUCGUAUGUACCGAAUCGGUUUUUGGUGGUUUUUUUGGAAAGUAUUAUGUUACGCCGUUCGGAUCUGCACUUCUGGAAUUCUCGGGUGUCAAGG | -0.459 |
| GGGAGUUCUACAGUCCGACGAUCUGCCAUAAGCGGCACCGGCACUGCCCGGUUGUCGUGUCCGAGGCCACCAUCGUGGGCGUCCGCAAGACCGGGCAGAUCUGGCCCAACGAUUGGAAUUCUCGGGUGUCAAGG | -1.27 |

Set 2
Cell line: HEK-293T-ACE2
Concentration: concentration not given
Relative to: vehicle
| SMILES | cell number [%] |
| --- | --- |
| COc1cc2c(cc1OC)CC(=O)N(CCCN(C)C[C@H]1Cc3cc(OC)c(OC)cc31)CC2.Cl | 101 |
| CN(C)C/C=C/C(=O)Nc1cc2c(Nc3ccc(F)c(Cl)c3)ncnc2cc1O[C@H]1CCOC1.O=C(O)/C=C\C(=O)O.O=C(O)/C=C\C(=O)O | 91.6 |
| NCCC(O)(P(=O)([O-])O)P(=O)([O-])O.[Na+].[Na+] | 103 |

Set 3
Target: RING finger protein unkempt homolog, zinc fingers 1-6, GST-SBP tag (UNK, Homo sapiens, UniProt Q9C0B0, residues 30-357)
Technique: RNA Bind-n-Seq
Form: RNA
Sample: in vitro
Concentration: not given
Setting: RNA with constant flanks, human-mouse chimeric sites, ends assumed
Relative to: input RNA pool
Direction: higher = stronger binding
Construct (chain): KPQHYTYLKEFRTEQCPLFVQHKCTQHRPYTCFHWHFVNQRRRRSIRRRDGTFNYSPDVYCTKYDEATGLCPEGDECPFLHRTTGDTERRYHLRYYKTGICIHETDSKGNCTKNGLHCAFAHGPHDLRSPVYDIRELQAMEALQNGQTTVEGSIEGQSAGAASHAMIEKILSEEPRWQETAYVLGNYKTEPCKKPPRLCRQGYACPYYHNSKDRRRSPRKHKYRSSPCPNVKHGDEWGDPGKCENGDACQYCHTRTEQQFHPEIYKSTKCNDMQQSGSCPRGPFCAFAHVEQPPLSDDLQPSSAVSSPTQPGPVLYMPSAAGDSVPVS
| Sequence | bound/input enrichment |
| --- | --- |
| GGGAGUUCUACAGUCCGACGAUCAACAGAUUGUCUUUAAGCAUUCCAAGCAAUGCUUGGGGGGUGAUCAUUGUUGCCCAUGUGCCUUCUGACUGAGCUUUAAUGCUGUUCAUCCUUGAUGCUUUCCUUCACUCCAGAAUUGUUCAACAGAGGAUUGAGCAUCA | 0.136 ratio |
| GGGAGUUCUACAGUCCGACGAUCCUCUUUGAAUCUUUCAAGAGUUUUGAAGGUCUCUUUUAUUUUCUGGGAUCCAUUGUUAACUUUAGUCAGGACCCAGAUGUGCACUUUAAAUAUAUUCAGGCGGCUUGCAAGACUGGGCAACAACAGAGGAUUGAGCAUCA | 0.764 ratio |
| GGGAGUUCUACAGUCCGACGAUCCCCCAAUACCAUUUGCAGGUCUGGAACUGCACUCUCUUUUUUAAAAAACAUGUAUACAUUUUAGGGCUGUAGAUUUAUUUUCCUGGUUUUGUUUUUCUUGCUUAUUCUUGAGCACAAGAACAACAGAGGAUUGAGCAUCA | 2.73 ratio |
| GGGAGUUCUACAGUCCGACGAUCGGCCUGGGACCGUCCUGGGCUAGUACAAUAGCGGCAGGUGGAGGCUCGAGAGGAAAGUUUGUUAGUGGAGGCAGUGGUAGAGGCCGUCAUGUACGGUCCUUUACUCGUAAAAAUCCUUCUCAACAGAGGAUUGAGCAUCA | 0.284 ratio |
| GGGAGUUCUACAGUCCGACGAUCAGCGUUCAGGAAUUCAUGACCUUUACAAGUCAACUGAUUGUGGAACGCUCGGGGAAAGGCAGCAGAGCUUCUGUCAAAGAACAAGAGUAUCUUUGCCACGUCUACGUCCGGAGCGACAGUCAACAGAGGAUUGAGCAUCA | 0.0991 ratio |
| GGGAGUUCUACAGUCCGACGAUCUUUCUACUGCAGCAAACCAUGCUACGAAUUAAGGAUCCUAAGAAGUCCCUGGAUUUUUAUACGAGGGUUCUUGGACUGACCCUCCUGCAGAAGCUUGAUUUUCCCAUUAUGAAGUUCUCGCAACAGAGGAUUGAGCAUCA | 0.225 ratio |
| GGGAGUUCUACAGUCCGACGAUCAAAUCGUGUGUGUCCAAUAUUGAAAGUGCUUUAUCUACACUCCAGUAUGUAAGCAGUAUAGUAGUUUCUUUAGAGAAUAGGUCAGCCAUUGUGAAGUACAAUGCAAGCUUAGUCACUCCACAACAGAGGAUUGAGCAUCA | 7.57 ratio |
| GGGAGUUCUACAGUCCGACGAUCCAACAGAGUCUAGGAUGGGUUCAUUACAUGAUUCAUGAGCCAGAACCACAUAUUCUUCUCUUUAGACGACCUCUUCCAAAAGAUCAACAAAAAUGAAGUGCAGCUGGGAUCAUCUAAUCUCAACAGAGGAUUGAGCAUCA | 0.379 ratio |

Set 4
Target: PABPC1L2, full length, GST fusion (mouse, UniProt A0ABA7IW68)
Technique: RNAcompete
Form: RNA
Sample: in vitro
Concentration: 20 nM
Setting: 7-mer, probes averaged, single round
Relative to: mean of 7-mers
Direction: higher = stronger binding
Target sequence (chain): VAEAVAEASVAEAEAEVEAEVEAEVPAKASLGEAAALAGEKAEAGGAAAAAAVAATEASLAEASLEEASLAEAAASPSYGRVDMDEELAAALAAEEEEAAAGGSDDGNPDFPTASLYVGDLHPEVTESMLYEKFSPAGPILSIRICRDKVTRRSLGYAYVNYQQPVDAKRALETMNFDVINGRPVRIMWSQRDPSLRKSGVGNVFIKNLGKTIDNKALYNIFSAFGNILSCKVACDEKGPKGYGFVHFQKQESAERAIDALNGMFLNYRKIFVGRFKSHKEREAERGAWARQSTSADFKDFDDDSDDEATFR
| Sequence | 7-mer Z-score |
| --- | --- |
| GGAGGGA | 0.334 |
| UGAGACA | -0.0718 |
| CUGUCAG | -0.322 |
| AAGGUCA | 0.00798 |
| CAUCAAU | -0.213 |
| UACAACU | -0.159 |
| AACCAGU | -0.0609 |
| GGAAUGA | 0.0152 |

Set 5
Target: Replicase polyprotein 1ab, nsp13 helicase (rep, Severe acute respiratory syndrome coronavirus 2, UniProt P0DTD1)
Action: inhibitor
Concentration: 20 µM
| Structure (SMILES) | inhibition |
| --- | --- |
| Cc1cc(OI)c(C(C)C)cc1-c1cc(C(C)C)c(OI)cc1C | 5.21% |
| Cc1cccc(C)c1NC(=O)CN1CCCCCC1 | -0.28% |
| CO[C@H]1[C@H](O)[C@@H](O)[C@@H](O)[C@H](O)[C@@H]1O | 5.49% |
| CC(O)(P(=O)(O)O)P(=O)(O)O | 7.61% |
| CC1(C)CCC(C)(C)c2cc(NC(=O)c3ccc(C(=O)O)cc3)ccc21 | 0.5% |
| CCCCCCCCCCCCOCCOCCOCCOCCOCCOCCOCCOCCOCCO | 2.81% |
| COc1cc(N)c(Cl)cc1C(=O)OCCN1CCCCC1 | 4.4% |
| COc1ccc(C(=O)N2CCCc3cc(C4=NNC(=O)SC4C)ccc32)cc1OC (centres unmarked) | 7.3% |
| Cc1ccc(=O)n(-c2ccccc2)c1 | 2.27% |
| Cc1nc(Nc2ncc(C(=O)Nc3c(C)cccc3Cl)s2)cc(N2CCN(CCO)CC2)n1 | 3.7% |
| CCOC(=O)c1c(C)n(C)c2ccc(O)cc12 | -0.16% |
| N=C(N)c1ccc(/C=C/c2ccc(C(=N)N)cc2O)cc1 | 16.4% |
| Cc1ccc2c(c1)[C@H]1CN(C)CC[C@H]1N2 | -1.22% |
| CC(C)C[C@H](NC(=O)[C@@H](O)[C@H](N)Cc1ccccc1)C(=O)O | -1.55% |
| O=S(=O)(N=Cc1c(O)ccc2ccccc12)c1cccs1 | 2.72% |
| O=C(O)c1ccccc1C(=O)Nc1ccc(-c2ccccc2)cc1 | -2.04% |
| O=C(O)/C=C\c1c[nH]cn1 | -5.03% and 3.24% |
| CCCc1cc(C(N)=S)ccn1 | 3.16% |
| CN(C)CCN(C)CCc1ccc(Cl)c(Cl)c1 | 0.99% |
| N[C@@H](C(=O)N[C@@H]1C(=O)N2C(C(=O)O)=C(Cl)CS[C@H]12)c1ccccc1 | 24.8% |
| Nc1nc(/C(=C/CC(=O)O)C(=O)N[C@@H]2C(=O)N3C(C(=O)O)=CCS[C@H]23)cs1 | 1.51% |
| CC(C)OC(=O)Nc1cccc(Cl)c1 | 5.26% |
| C=CC[N+]1([C@H]2C[C@H]3[C@@H]4CC[C@H]5C[C@H](O)[C@@H](N6CCOCC6)C[C@]5(C)[C@H]4CC[C@]3(C)[C@H]2OC(C)=O)CCCC1 | 3.46% |
| Cc1cc(Nc2ncnc3ccc(NC4=NC(C)(C)CO4)cc23)ccc1Oc1ccn2ncnc2c1 | 5.82% |

Other studies, line by line
Target: Replicase polyprotein 1ab, main protease (rep, Severe acute respiratory syndrome coronavirus 2, UniProt P0DTD1)
Effect on: enzyme activity
Action: inhibitor
Concentration: 20 µM
| SMILES | conditions | inhibition |
| --- | --- | --- |
| CN1C(=O)C(N2CCCCC2)S/C1=C\C(=O)O (centres unmarked) | hit confirmation, no DTT | 72.9% |
| CCC[C@H](NC(=O)/C(C#N)=C/c1cccc(Br)n1)c1ccccc1 | with DTT | -6.59% |
